# Assay results pooled from the literature.
# Each line is one published result; not all experiments were run side by side. Several values in a cell are separate wells, animals, samples, runs or records. ± gives the spread as reported.
Compound,organism,assay,test system,conditions,scale,measurement,value
COc1ccc2c(ccc3oc([N+](=O)[O-])cc32)c1,Mycobacterium avium subsp. hominissuis,REMA,ATCC 25291,,,MIC90,0.25 µg/mL
C=CC[C@@H]1c2ccc(OC)c(OC)c2CN2CCc3cc4c(cc3[C@H]12)OCO4,Staphylococcus aureus,,"P2rx7 A312V/A312V mice, skin wound infection","dose not given, day 6",baseline: day 0,relative wound size,0.77 and 0.73 and 0.98 and 0.75 and 0.82 and 1.04
C[C@H](NC(=O)[C@H](CCCNC(=N)N)NC(=O)[C@H](Cc1c[nH]c2ccccc12)NC(=O)[C@H](CCCNC(=N)N)NC(=O)[C@H](Cc1c[nH]c2ccccc12)NC(=O)[C@H](Cc1c[nH]c2ccccc12)NC(=O)[C@H](Cc1c[nH]c2ccccc12)NC(=O)[C@H](CCCNC(=N)N)NC(=O)[C@H](Cc1c[nH]c2ccccc12)NC(=O)[C@H](CCCNC(=N)N)NC(=O)CN)C(N)=O,Candida albicans,,CGMCC 2.209,no added salts,,MIC,8 µM
CN(C)C(=O)N1CC[C@H](N=C2Nc3cc(F)ccc3N(CC(F)F)c3ccc(Cl)cc32)C1,murine hepatitis virus,"viral replication, nanoluciferase reporter",DBT,1 µM,baseline: DMSO vehicle,inhibition,10%
CC(=O)N1CCN(c2ccc(OCC3COC(Cn4ccnc4)(c4ccc(Cl)cc4Cl)O3)cc2)CC1 (stereo not drawn),Candida parapsilosis,,CGMCC 2.399,"48 h, 30 °C",,MFC,32 µM
CS(=O)(=O)CCCn1c(Cn2c(=O)n(CC(F)(F)F)c3ccncc32)cc2cc(Cl)ccc21,respiratory syncytial virus,RT-qPCR,"hospitalized infants 1-24 months, nasal swab","oral, 9, 6 or 5 mg/kg daily, day 5, high dose by age cohort",baseline: placebo,LS mean difference vs placebo,-0.34 log10 copies/mL
O=C(Nc1ccc2[nH]nc(-c3ccncc3)c2c1)[C@@H]1CCN(CC(=O)N2CCN(c3ccc(-c4ncccn4)cc3)CC2)C1,Aspergillus fumigatus,,,20 µM,baseline: untreated,metabolic activity,≥ 80%
O=C(O)[C@@H]1[O][Sb](=[O])([O][Sb]2(=[O])[O][C@H]([C@H](O)CO)[C@H](O)[C@H](C(=O)O)[O]2)[O][C@H]([C@H](O)CO)[C@@H]1O.[Na+].[Na+].[Na+] (stereo partly drawn),Leishmania mexicana,"parasite growth, Giemsa stain count","C57BL/6 mouse bone marrow-derived macrophages, amastigotes",48 h,,IC50,2700 nM
COc1cc(Nc2ncc3c(n2)-c2ccc(Cl)cc2C(c2c(F)cccc2OC)=NC3)ccc1C(=O)O,murine hepatitis virus,"viral replication, nanoluciferase reporter",DBT,"1 µM, 10 h",baseline: DMSO vehicle,inhibition,16%
CC1(C)CC(=O)c2c(C(F)(F)F)nn(-c3ccc(C(N)=O)c(N[C@H]4CC[C@H](O)CC4)c3)c2C1,human alphaherpesvirus 1,,"primary human fibroblasts, K26 GFP",CC50 capped at 10.00 µM,baseline: CC50 over IC50,selectivity index,> 200
CNC(=O)c1ccc(Nc2ncc(C(F)(F)F)c(NCc3nccnc3N(C)S(C)(=O)=O)n2)cc1,murine hepatitis virus,"viral replication, nanoluciferase reporter",DBT,"1 µM, 10 h",baseline: DMSO vehicle,inhibition,38%
Nc1ncnc2c1ncn2[C@@H]1O[C@@H]2COP(=O)(O)O[C@H]3[C@@H](O)[C@H](n4cnc5c(=O)[nH]cnc54)O[C@@H]3COP(=O)(O)O[C@H]2[C@H]1O,West Nile virus,"RNA sequencing Reactome analysis, refers to: Cell Cycle Checkpoints (R-HSA-69620)",HFF-1,"concentration not given, upregulated pathways, together with: West Nile virus infection",baseline: WNV-infected without compound,fold enrichment,3.85
N=C(N)NCCC[C@H](NC(=O)[C@H](Cc1c[nH]c2ccccc12)NC(=O)[C@H](CCCNC(=N)N)NC(=O)[C@H](Cc1c[nH]c2ccccc12)NC(=O)[C@H](Cc1c[nH]c2ccccc12)NC(=O)[C@H](Cc1c[nH]c2ccccc12)NC(=O)[C@H](CCCNC(=N)N)NC(=O)[C@H](Cc1c[nH]c2ccccc12)NC(=O)[C@@H](N)CCCNC(=N)N)C(=O)N[C@@H](Cc1ccccc1)C(N)=O,Candida albicans,broth microdilution,"56452, RPMI 1640-MOPS","48 h, 30 °C",,MIC,16 µM
O=C1NC(=O)C(c2cnc3ccccn23)=C1c1cn2c3c(cc(F)cc13)CN(C(=O)N1CCCCC1)CC2,Aspergillus fumigatus,,,20 µM,baseline: untreated,metabolic activity,≥ 80%
C[C@@H]1CN(c2cc(-c3n[nH]c4ccc(OC5(C)CC5)cc34)ncn2)C[C@H](C)O1,murine hepatitis virus,"viral replication, nanoluciferase reporter",DBT,1 µM,baseline: DMSO vehicle,inhibition,37%
CNCC(=O)N[C@@H](CO)C(=O)N[C@H]1[C@H](O)[C@@H](O)[C@H](n2ccc(N)nc2=O)O[C@@H]1C(N)=O,Tobacco mosaic virus,curative activity,plant in vivo,,,EC50,331 ± 2.8 µg/mL
CC(=O)O[C@H]1C[C@H](O[C@H]2[C@@H](O)C[C@H](O[C@H]3[C@@H](O)C[C@H](O[C@H]4CC[C@@]5(C)[C@H](CC[C@@H]6[C@@H]5C[C@@H](O)[C@]5(C)[C@@H](C7=CC(=O)OC7)CC[C@]65O)C4)O[C@@H]3C)O[C@@H]2C)O[C@H](C)[C@H]1O[C@@H]1O[C@H](CO)[C@@H](O)[C@H](O)[C@H]1O,human alphaherpesvirus 1,,"K26 GFP, 3D skin equivalent, air-liquid",,baseline: CC50 over IC50,selectivity index,> 125
C[C@H]1c2cccc(O)c2C(=O)C2=C(O)[C@]3(O)C(=O)C(C(N)=O)=C(O)[C@@H](N(C)C)[C@@H]3[C@@H](O)[C@@H]21,Enterococcus faecalis and Enterococcus faecium,,,,,MIC90,16 µg/mL
OC(Cn1cncn1)(Cn1cncn1)c1ccc(F)cc1F,Candida parapsilosis,,CGMCC 2.399,"48 h, 30 °C",,MFC,8 µM
Nc1ncnc2c([C@@H]3N[C@H](CO)[C@@H](O)[C@H]3O)c[nH]c12,Measles morbillivirus,viral replication,"Vero 76, Chicago",94.7 µM,,inhibition,74.7%
NC1(c2ccc(-c3nc4ccn5c(=O)[nH]nc5c4cc3-c3ccccc3)cc2)CCC1,murine hepatitis virus,"viral replication, nanoluciferase reporter",DBT,"1 µM, 10 h",baseline: DMSO vehicle,inhibition,70%
O=[N+]([O-])c1cc2c(ccc3c4cc([N+](=O)[O-])oc4ccc23)o1,Enterobacter cloacae,REMA,,,,MIC90,> 32 µg/mL
Cc1c2c(nn1C)CSCc1cc(n(C)n1)CSc1cc(c3ccccc3c1)OCCCc1c(C(=O)O)n(C)c3c-2c(Cl)ccc13,Staphylococcus aureus,"label-free quantitative proteomics, refers to: SAOUHSC_00864 protein",SA113,concentration not given,baseline: untreated control,log2 fold change,-5.3
Cc1ccc(-c2cnc([C@@]3(O)CC[C@H](C(=O)O)C(C)(C)C3)s2)cc1Nc1cccc(C(F)(F)F)n1,murine hepatitis virus,"viral replication, nanoluciferase reporter",DBT,"1 µM, 10 h",baseline: DMSO vehicle,inhibition,25%
